Measurements of several laboratories.
Numbered parts are unrelated; each lists some results of a single study. Substitutions count along the parent as printed.

Block 1 — technique: competition protein-binding microarray; molecule type: double-stranded DNA, one strand shown; medium: in vitro; concentration: 2 µM; together with: Cbf1 competitor, 0.05 µM; direction: higher = stronger binding
Target: Phosphate system positive regulatory protein PHO4, full length, GST-tagged (PHO4, Saccharomyces cerevisiae, UniProt P07270, residues 1-312)
Setting: whole 60-bp probe, lowest competitor level
Construct (chain): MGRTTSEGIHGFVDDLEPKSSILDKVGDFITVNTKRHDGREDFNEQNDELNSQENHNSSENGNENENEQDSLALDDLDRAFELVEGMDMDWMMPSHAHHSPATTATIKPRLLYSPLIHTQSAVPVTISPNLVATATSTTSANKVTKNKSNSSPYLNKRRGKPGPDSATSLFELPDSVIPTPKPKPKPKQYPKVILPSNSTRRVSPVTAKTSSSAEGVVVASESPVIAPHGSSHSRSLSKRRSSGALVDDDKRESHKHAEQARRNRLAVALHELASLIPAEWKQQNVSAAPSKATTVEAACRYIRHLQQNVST
The fluorescence intensity of `AGTAACCCTGCTTCACACATGAGAAACATTATCGCTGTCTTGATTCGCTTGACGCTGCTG` is reported as 5440 a.u.
`TGTATCCTATACAATCACGGGCGACGGACAAGACCCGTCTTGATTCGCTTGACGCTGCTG` has a fluorescence intensity of 4860 a.u.
For `AAACTGTCAAGGTTCCTCGTGACTCGGACGAATGTTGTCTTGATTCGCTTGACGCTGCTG`, the fluorescence intensity was 8220 a.u.
The fluorescence intensity of `CTATCCCTTTCTTTGCACGTGATGGTAAGAATCGTAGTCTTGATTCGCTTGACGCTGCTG` is reported as 16800 a.u.
With `CGTTAAAGGGACCAAAACGTGGGTAAGGGATGCCGCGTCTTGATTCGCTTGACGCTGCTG` the fluorescence intensity was 14500 a.u.
`AAAGCGGTAATTTGGTTGGTGGGTGCAGATATCTATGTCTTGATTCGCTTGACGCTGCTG` gave a fluorescence intensity of 4490 a.u.
For `CGAAGTTATTTGTCTAGCATGATAAGGTACAATGCCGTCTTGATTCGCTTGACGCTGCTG`, the fluorescence intensity was 4100 a.u.
With `CAATGTCCATTTTAGCACGTGGGACTTGTTCTGTGGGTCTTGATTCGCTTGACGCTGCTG` the fluorescence intensity was 17600 a.u.
`CGCTACCAACTGCGCCATGTGCCCTGATGACTGTTGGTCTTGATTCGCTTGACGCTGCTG` has a fluorescence intensity of 11900 a.u.
With `TGCGCAACAACTTGTCACACTACTTTATGTCTAGAAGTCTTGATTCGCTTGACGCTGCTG` the fluorescence intensity was 4020 a.u.
`TCACAAGAATCAATTGTATTTTTCTAGACTCGCTAAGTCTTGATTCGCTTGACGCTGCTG` has a fluorescence intensity of 2650 a.u.
`GAACTAATATTCCGTCACGTCACTTAAGTGCAAGGTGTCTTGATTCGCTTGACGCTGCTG` has a fluorescence intensity of 5340 a.u.
For `GAAAAGTGGTATGCACTCGTGGGTATTTTTACAACTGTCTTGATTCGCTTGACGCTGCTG`, the fluorescence intensity was 11800 a.u.
`CTTCTGTAAATTTGATACGTGGGTGGACGCGCCCCGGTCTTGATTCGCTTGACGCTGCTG` gave a fluorescence intensity of 6530 a.u.
`GGAAAACCGCCCCATCACGCTGACCCCTTTGGCCCGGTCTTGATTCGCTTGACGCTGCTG` has a fluorescence intensity of 4960 a.u.
`AGGTTTTGCGGCCATCACGTTCGTCGGGACATATGAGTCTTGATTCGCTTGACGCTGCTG` gave a fluorescence intensity of 9430 a.u.
For `TCTGTATGGGTTTGTCATGCTGCTCTGGTCCCTTATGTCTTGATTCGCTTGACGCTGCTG`, the fluorescence intensity was 5200 a.u.
`TAGTTTGCTGTCCGTCACGTGCTAAAGGGTCTGATAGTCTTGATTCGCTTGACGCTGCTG` gave a fluorescence intensity of 15600 a.u.
With `TCAATTTCGAACGGAAGCGTGCGGACTCTGAGTTTTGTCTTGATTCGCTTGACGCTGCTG` the fluorescence intensity was 8240 a.u.
`TGCGCAACAACTTGTCACTGCACTTTATGTCTAGAAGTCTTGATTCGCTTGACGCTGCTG` has a fluorescence intensity of 3580 a.u.
The fluorescence intensity of `CTTCTGTAAATTTGTGCGGTGGGTGGACGCGCCCCGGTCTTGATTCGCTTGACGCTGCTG` is reported as 4790 a.u.
The fluorescence intensity of `ATCTATATACATATTTATATATATTATTAGAACTTTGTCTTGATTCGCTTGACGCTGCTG` is reported as 3310 a.u.
For `TTTTTCTCGAACGGCCACGTTTGCGTTGTTACATGAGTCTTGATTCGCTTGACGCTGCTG`, the fluorescence intensity was 12800 a.u.

Block 2 — target: CCND1, cyclin fold, Cln2 fusion (human); technique: yeast growth competition, sequencing; medium: yeast; setting: weak parent motif; reference: not given; direction: higher = stronger binding
Parent: E2F1 docking peptide (human); PPVKRRLDLETDH; partner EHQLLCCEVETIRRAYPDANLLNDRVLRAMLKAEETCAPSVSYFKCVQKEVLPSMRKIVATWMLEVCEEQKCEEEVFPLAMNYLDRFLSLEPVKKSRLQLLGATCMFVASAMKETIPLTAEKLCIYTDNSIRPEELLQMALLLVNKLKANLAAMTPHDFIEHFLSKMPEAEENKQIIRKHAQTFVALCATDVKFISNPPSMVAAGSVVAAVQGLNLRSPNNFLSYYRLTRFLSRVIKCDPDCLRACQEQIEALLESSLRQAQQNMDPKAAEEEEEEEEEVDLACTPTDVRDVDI
For `L7S`, “normalised enrichment score” read -0.13.
`P1T`: “normalised enrichment score” 0.628.
`K4H`: “normalised enrichment score” 0.376.
`D12W` — result for “normalised enrichment score”: 6.77e-05.
`L7G` — result for “normalised enrichment score”: 0.186.
Under “normalised enrichment score”, `T11D` is recorded as 0.154.
`D8P` — result for “normalised enrichment score”: 0.0719.
Under “normalised enrichment score”, `P1L` is recorded as 1.42.
`E10M` — result for “normalised enrichment score”: -0.0801.
For `R5Q`, “normalised enrichment score” read 0.315.
`E10A` — result for “normalised enrichment score”: 0.729.
For `K4I`, “normalised enrichment score” read 0.41.
`E10H`: “normalised enrichment score” 0.763.

Block 3 — technique: protein-binding microarray; molecule type: double-stranded DNA, one strand shown; medium: in vitro; concentration: 2540 nM top; setting: 60-bp whole probe; together with: salmon DNA 0.4 mg/ml; reference: random background probes; direction: higher = stronger binding; shared flanks, not repeated: GCCTAGCAC … GTCTTGATTCGCTTGACGCTGCTG
Target: Interferon regulatory factor 3, full length, phosphomimetic (IRF3, Homo sapiens, UniProt Q14653, residues 1-427, S386D/S396D/S398D/S402D/T404D/S405D)
Target sequence (chain): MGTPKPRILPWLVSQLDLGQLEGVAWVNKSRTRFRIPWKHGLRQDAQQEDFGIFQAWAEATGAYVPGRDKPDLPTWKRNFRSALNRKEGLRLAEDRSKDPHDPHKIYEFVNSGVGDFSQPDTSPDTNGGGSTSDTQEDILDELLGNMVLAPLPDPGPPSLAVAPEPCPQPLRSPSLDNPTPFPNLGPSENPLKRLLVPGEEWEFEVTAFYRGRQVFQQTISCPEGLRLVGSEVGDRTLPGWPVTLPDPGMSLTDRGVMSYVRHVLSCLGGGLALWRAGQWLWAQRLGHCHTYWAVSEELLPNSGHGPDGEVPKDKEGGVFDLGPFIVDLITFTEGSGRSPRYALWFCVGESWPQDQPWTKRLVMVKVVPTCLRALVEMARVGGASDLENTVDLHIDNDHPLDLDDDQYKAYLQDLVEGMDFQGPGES
Under “fitted relative affinity”, `ACCCGAGACACCGCCCCTTTGTGCTAG` is recorded as -0.372 z-score.
Under “fitted relative affinity”, `GACGCTTTCAGTCTCGAGACGTGCTAG` is recorded as 2.26 z-score.
`TTTGCATTGCTTCTATAGGCGTGCTAG`: “fitted relative affinity” -0.0482 z-score.
Under “fitted relative affinity”, `TTAGGTAGCGGTCTCGGTTAGTGCTAG` is recorded as 0.689 z-score.
`TTAGGTTTCGGTTTTGGTTAGTGCTAG`: “fitted relative affinity” 10.7 z-score.
`TTAGGTTTCGGGTGTCGGTTAGTGCTA`: “fitted relative affinity” 3.73 z-score.
For `TTAGGTTTCTGTTTCGGTTAGTGCTAG`, “fitted relative affinity” read 8.47 z-score.
`TTAGGACTGCTACAGCTTTAGTGCTAG` — result for “fitted relative affinity”: -0.67 z-score.
`TTAGAACTGAGTGTCGATTAGTGCTAG` — result for “fitted relative affinity”: 0.0396 z-score.
`GGCCCTATAGGTTTCTATATGTGCTAG`: “fitted relative affinity” 0.985 z-score.
Under “fitted relative affinity”, `TTAGGTATCCTTCTCCGTTAGTGCTAG` is recorded as 6.44 z-score.
For `GACGGACGGCTACTGCTGACGTGCTAG`, “fitted relative affinity” read -1.08 z-score.
`GACGGTCTCGGTCCCGGGACGTGCTAG`: “fitted relative affinity” 0.322 z-score.
`TTAGGACTGGGTATCGGTGAGTGCTAG` — result for “fitted relative affinity”: -0.41 z-score.
For `CCCAAGATTGCCGTTTCCTAAGTGCTA`, “fitted relative affinity” read 3.2 z-score.
Under “fitted relative affinity”, `GACGATATCGGGTTTCGAGACGTGCTA` is recorded as 1.21 z-score.
Under “fitted relative affinity”, `TTAGGTATCCTTCTCCTTTTGTGCTAG` is recorded as 7.31 z-score.
Under “fitted relative affinity”, `GACGGAGTGCTTTTCCTGACGTGCTAG` is recorded as 0.152 z-score.
For `GACGGTTACGGGTTTCGGGACGTGCTA`, “fitted relative affinity” read 1.26 z-score.
`CTGCACTCCAGTCTGGGAGAGTGCTAG` — result for “fitted relative affinity”: 0.137 z-score.
`TTAGGACAGCTTTTCCTTTAGTGCTAG`: “fitted relative affinity” 0.722 z-score.
Under “fitted relative affinity”, `CTGCAGGTAGCAGAGACTTGGTGCTAG` is recorded as -0.903 z-score.

Block 4 — technique: DHFR PCA, deep sequencing; medium: yeast; together with: (+)-ABA 2500 µM; reference: wild-type fitted maximum; direction: higher = stronger binding
Target: ABI1, truncated, D143A, DHFR fusion (Arabidopsis thaliana)
Setting: methotrexate growth selection, single substitutions
Parent: PYL1, truncated, DHFR fusion (Arabidopsis thaliana); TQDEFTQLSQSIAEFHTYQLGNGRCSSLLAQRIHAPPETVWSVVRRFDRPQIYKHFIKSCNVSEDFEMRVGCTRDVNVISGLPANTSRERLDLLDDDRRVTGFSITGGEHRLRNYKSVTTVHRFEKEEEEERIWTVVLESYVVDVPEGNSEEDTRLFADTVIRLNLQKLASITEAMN
Under “relative binding score”, `D75H` is recorded as 97.6%.
Under “relative binding score”, `R32Q` is recorded as 98.2%.
`V136K` — result for “relative binding score”: 65.4%.
`Y141D`: “relative binding score” -8.14%.
`R46A` — result for “relative binding score”: 92%.
`C60F`: “relative binding score” 60.5%.
Under “relative binding score”, `C25F` is recorded as 93.1%.
Under “relative binding score”, `T73K` is recorded as 94%.
For `A170I`, “relative binding score” read 54.8%.
For `Q31W`, “relative binding score” read 83.9%.
Under “relative binding score”, `D92V` is recorded as 90.3%.
For `I33F`, “relative binding score” read 66.8%.
For `E147Y`, “relative binding score” read 95.3%.
`Q10D`: “relative binding score” 107%.
`G108D` — result for “relative binding score”: 89.9%.
`S87C` — result for “relative binding score”: 91.9%.
